Experimental data gathered from unrelated publications.
Parts stem from different laboratories: compare values within a part only.
UniProt Q15759, sequence (whole entry, looked up): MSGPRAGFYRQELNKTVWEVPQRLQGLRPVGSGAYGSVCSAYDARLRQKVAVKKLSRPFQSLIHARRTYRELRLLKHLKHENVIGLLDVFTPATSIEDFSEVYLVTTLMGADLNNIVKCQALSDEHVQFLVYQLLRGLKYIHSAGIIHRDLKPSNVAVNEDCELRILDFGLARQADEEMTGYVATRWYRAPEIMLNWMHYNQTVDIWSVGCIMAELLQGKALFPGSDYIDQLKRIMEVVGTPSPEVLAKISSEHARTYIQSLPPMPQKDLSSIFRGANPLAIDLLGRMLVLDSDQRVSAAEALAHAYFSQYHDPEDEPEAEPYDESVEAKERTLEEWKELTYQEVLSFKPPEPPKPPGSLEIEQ
UniProt P11802, sequence (whole entry, looked up): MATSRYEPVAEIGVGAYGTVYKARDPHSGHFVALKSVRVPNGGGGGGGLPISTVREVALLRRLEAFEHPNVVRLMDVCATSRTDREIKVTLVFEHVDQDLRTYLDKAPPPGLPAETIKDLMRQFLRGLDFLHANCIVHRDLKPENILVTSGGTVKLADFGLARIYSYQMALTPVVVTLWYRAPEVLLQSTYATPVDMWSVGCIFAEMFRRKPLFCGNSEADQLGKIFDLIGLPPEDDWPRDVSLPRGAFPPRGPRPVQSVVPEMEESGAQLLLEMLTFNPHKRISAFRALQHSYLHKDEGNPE
UniProt Q00536, sequence (whole entry, looked up): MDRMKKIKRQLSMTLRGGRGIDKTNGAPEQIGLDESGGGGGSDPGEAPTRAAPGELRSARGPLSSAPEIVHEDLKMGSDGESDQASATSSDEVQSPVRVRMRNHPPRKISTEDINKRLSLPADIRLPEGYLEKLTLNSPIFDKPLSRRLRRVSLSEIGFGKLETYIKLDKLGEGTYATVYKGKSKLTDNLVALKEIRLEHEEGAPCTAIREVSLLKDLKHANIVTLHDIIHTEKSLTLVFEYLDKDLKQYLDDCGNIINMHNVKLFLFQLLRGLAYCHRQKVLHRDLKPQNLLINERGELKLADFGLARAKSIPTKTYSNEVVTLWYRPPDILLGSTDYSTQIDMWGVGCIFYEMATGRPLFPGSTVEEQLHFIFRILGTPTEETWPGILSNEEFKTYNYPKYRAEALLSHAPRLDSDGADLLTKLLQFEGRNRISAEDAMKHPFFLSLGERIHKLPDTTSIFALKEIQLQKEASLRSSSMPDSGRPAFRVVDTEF
UniProt O15530, sequence (whole entry, looked up): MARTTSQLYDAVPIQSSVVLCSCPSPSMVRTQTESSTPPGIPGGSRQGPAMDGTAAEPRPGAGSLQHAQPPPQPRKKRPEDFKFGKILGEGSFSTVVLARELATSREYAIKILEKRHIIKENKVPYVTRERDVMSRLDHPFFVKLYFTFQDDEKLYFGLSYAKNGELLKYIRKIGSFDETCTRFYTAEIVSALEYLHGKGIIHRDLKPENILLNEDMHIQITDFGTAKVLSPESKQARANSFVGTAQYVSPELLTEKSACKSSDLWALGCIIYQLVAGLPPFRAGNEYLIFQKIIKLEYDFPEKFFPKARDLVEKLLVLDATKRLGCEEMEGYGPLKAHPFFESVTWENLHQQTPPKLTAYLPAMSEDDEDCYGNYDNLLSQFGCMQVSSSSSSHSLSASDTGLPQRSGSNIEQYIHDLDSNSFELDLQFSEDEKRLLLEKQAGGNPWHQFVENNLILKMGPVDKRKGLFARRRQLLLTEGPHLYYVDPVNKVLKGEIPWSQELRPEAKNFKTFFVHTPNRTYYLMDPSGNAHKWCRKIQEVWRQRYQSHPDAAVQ
UniProt P49840, sequence (whole entry, looked up): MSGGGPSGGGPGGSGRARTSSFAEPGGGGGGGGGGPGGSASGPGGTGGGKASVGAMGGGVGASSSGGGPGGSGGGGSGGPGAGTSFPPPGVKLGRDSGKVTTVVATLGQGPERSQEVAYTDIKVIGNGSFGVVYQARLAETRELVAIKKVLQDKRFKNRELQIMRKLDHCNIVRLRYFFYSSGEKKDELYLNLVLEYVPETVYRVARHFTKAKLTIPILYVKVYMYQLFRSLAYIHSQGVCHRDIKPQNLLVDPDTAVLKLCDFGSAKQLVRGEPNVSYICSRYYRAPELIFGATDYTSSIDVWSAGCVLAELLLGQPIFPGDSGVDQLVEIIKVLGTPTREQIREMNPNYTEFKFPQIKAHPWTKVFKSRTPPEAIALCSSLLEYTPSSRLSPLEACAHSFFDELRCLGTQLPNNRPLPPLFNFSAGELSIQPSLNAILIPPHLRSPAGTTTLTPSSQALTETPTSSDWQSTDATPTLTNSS

Series 1
Compound: CC(C)n1cnc(-c2ccc(F)cc2)c1-c1ncc(C(=O)Nc2ccc(N3CCN(C)CC3)cc2)[nH]1
Method: phase 2a trial
Species: idiopathic pulmonary fibrosis patients
| item | dose | setting | adverse event incidence [%] |
| --- | --- | --- | --- |
| chronic gastritis | 60 mg once daily | grade 1 | 0 |
| hydroxybutyrate dehydrogenase increased | 60 mg once daily | grade 2 | 0 |
| gingivitis | 30 mg once daily | grade 1 | 0 |
| liver injury | 60 mg once daily | grade 2 | 0 |
| weight decreased | 30 mg once daily | grade 3 | 0 |
| chronic gastritis | dose not given | grade 1, all arms pooled | 0 |
| QRS axis abnormal | 60 mg once daily | grade 1 | 0 |
| immunoglobulins increased | dose not given | grade 5, all arms pooled | 0 |

Series 2
Cell line: mouse MPNST tumor cells
Method: high-content nuclear imaging
Item: cell number
Concentration: 10 µM
Time: 12 h
Setting: mean of 2 replicates
Baseline: plate mean
Reading: higher = more cells
| SMILES | nuclei count [z-score] |
| --- | --- |
| CCCCN(CCCC)C(=O)CN1C[C@H](c2ccc3c(c2)OCO3)[C@@H](C(=O)O)[C@@H]1c1ccc(OC)cc1 | 2.16 |
| CCCc1cc(C)[nH]c(=O)c1CNC(=O)c1cc(-c2ccc(N3CCN(C(C)C)CC3)nc2)cc2c1cnn2C(C)C | -4.98 |
| O=C(O)C[C@H](O)C[C@H](O)/C=C/c1c(C2CC2)nc2ccccc2c1-c1ccc(F)cc1 | -4.76 |
| Clc1ccc2c(c1)CCc1cccnc1C2=C1CCNCC1 | -3.24 |
| CCC(NC(C)C)C(O)c1ccc(O)c2[nH]c(=O)ccc12 (stereo not shown) | 1.56 |
| O=C(O)c1cc(=O)c2c(OCC(O)COc3cccc4oc(C(=O)O)cc(=O)c34)cccc2o1 | 2.19 |

Series 3
Compound: CCOC(=O)c1cc2cc(-c3cc(C(=O)NCc4ccc(C(=O)O)cc4)nn3C)ccc2[nH]1
Read-out: cell-free assay
Method: competition with immobilised ligand
Concentration: 0.1 µM
| target | remaining binding [%] |
| --- | --- |
| Mitogen-activated protein kinase 11 (MAPK11, Homo sapiens, UniProt Q15759) | 98 |
| 3-phosphoinositide-dependent protein kinase 1 (PDPK1, Homo sapiens, UniProt O15530) | 92 |
| Cyclin-dependent kinase 4, with cyclin D3 (CDK4, Homo sapiens, UniProt P11802) | 74 |
| Glycogen synthase kinase-3 alpha (GSK3A, Homo sapiens, UniProt P49840) | 100 |
| Receptor-type tyrosine-protein kinase FLT3 (FLT3, Homo sapiens, UniProt P36888) | 90 |
| Cyclin-dependent kinase 16 (CDK16, Homo sapiens, UniProt Q00536) | 75 |
| Phosphatidylinositol 4,5-bisphosphate 3-kinase catalytic subunit alpha isoform (PIK3CA, Homo sapiens, UniProt P42336, C420R) | 83 |
| Receptor-interacting serine/threonine-protein kinase 1 (RIPK1, Homo sapiens, UniProt Q13546) | 100 |

Series 4
Target: ALK tyrosine kinase receptor (ALK, Homo sapiens, UniProt Q9UM73)
UniProt Q9UM73, sequence (whole entry, looked up): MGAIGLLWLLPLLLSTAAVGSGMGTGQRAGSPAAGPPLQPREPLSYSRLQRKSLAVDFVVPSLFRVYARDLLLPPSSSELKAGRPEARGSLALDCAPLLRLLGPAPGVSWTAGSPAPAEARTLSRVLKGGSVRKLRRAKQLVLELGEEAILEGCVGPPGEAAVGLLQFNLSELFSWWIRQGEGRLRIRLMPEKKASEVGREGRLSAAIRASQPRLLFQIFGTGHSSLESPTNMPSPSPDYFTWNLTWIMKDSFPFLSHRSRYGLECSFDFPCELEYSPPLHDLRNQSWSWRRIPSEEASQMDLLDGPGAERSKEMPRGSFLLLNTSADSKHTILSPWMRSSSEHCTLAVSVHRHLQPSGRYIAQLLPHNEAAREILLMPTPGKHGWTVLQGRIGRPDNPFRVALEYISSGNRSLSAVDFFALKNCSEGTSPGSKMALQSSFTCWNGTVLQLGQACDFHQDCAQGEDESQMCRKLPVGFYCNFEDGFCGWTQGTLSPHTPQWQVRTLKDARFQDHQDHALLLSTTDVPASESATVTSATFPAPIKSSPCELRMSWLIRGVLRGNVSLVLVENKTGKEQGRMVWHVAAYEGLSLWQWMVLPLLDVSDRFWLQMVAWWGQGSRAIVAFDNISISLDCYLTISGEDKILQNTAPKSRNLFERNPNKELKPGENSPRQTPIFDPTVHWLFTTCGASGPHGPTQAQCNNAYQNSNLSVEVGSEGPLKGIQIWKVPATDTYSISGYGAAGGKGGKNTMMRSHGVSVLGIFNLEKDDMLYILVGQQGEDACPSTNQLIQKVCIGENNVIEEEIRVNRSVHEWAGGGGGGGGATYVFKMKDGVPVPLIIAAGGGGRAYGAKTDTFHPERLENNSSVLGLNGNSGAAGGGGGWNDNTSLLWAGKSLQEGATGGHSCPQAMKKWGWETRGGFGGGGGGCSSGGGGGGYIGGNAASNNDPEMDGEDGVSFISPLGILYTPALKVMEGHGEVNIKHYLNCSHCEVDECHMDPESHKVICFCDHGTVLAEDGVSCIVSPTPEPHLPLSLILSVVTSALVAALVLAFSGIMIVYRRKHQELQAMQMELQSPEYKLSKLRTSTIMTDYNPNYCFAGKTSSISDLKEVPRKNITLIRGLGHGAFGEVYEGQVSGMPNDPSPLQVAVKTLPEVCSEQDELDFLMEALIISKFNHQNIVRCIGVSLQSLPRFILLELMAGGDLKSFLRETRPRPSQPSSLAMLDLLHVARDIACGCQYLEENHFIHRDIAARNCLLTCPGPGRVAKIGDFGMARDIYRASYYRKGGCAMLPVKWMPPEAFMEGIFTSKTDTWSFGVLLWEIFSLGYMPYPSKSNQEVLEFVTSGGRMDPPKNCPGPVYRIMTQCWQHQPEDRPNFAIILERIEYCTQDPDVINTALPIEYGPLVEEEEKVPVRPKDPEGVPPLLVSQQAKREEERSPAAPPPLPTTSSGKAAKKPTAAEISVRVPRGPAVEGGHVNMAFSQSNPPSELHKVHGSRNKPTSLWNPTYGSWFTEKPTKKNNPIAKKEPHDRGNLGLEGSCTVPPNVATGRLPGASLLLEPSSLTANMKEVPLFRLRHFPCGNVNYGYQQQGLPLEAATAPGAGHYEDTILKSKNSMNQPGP
Read-out: enzyme activity
Action: inhibitor
Concentration: 0.5 µM
Baseline: control
| Compound | remaining activity [%] |
| --- | --- |
| Ic1cccc(CSc2nnc(-c3ccncc3)o2)c1 | 101 |
| O=C(NC(NC(=S)Nc1ccc(F)c([N+](=O)[O-])c1)C(Cl)(Cl)Cl)C(c1ccccc1)c1ccccc1 (stereo not shown) | 110 |
| c1ccc(-c2[nH]ncc2-c2ccnc3ccccc23)nc1 | 111 |
| O=c1cc(-c2cccc3c2Sc2ccccc2S3)oc(N2CCOCC2)c1 | 96.2 |
| N#C/C(=C\c1ccc(O)c(O)c1)C(=O)NCc1ccccc1 | 105 |
| c1ccc(-c2cnc(Nc3ccc(OCCN4CCCC4)cc3)s2)cc1 | 97 |
| Cc1nc2cc3nc(-c4cccs4)cnc3cc2n1C | 99.8 |
| CN(C)C[C@H]1CCn2c(c(C3=C(c4cn(C)c5ccccc45)C(=O)NC3=O)c3ccccc32)C1 | 99.6 |
| O=C1c2ccccc2-c2n[nH]c3cccc1c23 | 91.7 |
| Cn1nc2c3c(cccc31)C(=O)c1ccccc1-2 | 87.4 |
| C[C@@H]1CCN(C(=O)CC#N)C[C@@H]1N(C)c1ncnc2[nH]ccc12 | 107 |
| CCOc1nc(NC(=O)Cc2cc(OC)ccc2OC)cc(N)c1C#N | 92.9 |

Some of these lines once more (series 4):
| Compound | remaining activity [%] |
| --- | --- |
| O=C1c2ccccc2-c2n[nH]c3cccc1c23 | 91.7 |
| c1ccc(-c2cnc(Nc3ccc(OCCN4CCCC4)cc3)s2)cc1 | 97 |
